# Measured values gathered from unrelated publications.
# Each line is one published result; not all experiments were run side by side. ± gives the spread as reported.
# AKR1C3: Aldo-keto reductase family 1 member C3 (AKR1C3, Homo sapiens, UniProt P42330)
# UniProt P42330, sequence (whole entry, looked up): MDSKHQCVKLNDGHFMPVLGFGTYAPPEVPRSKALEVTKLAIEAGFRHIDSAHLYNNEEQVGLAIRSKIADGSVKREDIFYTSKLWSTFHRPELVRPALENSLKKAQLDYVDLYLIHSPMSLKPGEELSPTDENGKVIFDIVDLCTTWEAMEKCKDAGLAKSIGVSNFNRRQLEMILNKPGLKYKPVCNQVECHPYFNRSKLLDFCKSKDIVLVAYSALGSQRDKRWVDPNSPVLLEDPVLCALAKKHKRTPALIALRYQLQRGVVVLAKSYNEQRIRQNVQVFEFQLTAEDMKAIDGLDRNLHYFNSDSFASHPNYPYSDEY
# BCHE: Cholinesterase (BCHE, Equus caballus, UniProt P81908)
# UniProt P81908, sequence (whole entry, looked up): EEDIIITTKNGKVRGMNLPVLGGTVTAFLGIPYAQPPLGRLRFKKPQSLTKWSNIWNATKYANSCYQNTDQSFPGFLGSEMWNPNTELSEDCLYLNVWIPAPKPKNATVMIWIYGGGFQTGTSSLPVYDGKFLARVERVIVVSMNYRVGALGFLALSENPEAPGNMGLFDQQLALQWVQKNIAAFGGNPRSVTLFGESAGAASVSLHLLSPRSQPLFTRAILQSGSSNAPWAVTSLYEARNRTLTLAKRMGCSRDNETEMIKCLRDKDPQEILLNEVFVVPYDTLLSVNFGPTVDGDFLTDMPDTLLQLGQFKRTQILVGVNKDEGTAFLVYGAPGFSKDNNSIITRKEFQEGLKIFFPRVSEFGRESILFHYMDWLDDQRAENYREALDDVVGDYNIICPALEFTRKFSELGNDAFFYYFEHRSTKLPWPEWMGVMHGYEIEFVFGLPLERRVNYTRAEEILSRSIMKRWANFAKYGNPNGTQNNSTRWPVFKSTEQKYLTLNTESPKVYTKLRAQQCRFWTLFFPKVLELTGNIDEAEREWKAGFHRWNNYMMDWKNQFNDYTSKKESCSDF
# CDK5: Cyclin-dependent kinase 5 (CDK5, Homo sapiens, UniProt Q00535)
# UniProt Q00535, sequence (whole entry, looked up): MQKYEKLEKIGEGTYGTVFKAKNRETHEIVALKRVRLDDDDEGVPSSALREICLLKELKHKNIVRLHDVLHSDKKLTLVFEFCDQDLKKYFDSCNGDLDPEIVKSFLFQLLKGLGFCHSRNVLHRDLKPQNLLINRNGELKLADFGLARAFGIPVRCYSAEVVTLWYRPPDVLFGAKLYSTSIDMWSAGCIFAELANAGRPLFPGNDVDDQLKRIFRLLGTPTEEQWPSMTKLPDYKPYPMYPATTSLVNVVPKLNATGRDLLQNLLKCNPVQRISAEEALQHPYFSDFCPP
# UniProt O95870, sequence (whole entry, looked up): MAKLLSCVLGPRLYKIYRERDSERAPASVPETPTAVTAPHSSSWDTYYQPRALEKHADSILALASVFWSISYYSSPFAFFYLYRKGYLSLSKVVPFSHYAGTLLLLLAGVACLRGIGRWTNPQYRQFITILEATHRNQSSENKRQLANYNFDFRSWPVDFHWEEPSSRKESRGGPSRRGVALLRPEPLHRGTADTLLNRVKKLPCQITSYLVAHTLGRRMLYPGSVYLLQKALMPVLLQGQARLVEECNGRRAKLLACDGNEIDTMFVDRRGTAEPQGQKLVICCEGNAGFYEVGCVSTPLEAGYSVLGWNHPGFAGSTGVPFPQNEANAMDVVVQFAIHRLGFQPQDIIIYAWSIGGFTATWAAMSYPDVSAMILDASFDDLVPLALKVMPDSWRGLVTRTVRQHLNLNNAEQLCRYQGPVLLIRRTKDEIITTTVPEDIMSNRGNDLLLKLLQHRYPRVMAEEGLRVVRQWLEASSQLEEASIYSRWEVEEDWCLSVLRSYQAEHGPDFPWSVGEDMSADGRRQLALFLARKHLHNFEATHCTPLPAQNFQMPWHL
# UniProt P04839, sequence (whole entry, looked up): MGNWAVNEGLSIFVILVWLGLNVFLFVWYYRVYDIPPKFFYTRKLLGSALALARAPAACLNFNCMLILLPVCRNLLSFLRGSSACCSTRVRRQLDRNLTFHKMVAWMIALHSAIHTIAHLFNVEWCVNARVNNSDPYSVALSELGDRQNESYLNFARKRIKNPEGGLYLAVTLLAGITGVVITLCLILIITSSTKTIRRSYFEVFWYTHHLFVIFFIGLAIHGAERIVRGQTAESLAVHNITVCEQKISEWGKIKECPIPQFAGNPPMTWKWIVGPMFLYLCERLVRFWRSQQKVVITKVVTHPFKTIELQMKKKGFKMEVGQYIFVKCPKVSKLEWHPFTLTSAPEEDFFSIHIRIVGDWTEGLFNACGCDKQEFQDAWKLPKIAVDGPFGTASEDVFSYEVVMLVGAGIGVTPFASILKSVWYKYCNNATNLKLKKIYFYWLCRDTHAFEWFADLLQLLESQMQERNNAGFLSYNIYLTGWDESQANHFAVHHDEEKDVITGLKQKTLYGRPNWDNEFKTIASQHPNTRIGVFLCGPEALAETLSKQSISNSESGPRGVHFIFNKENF
# UniProt P12821, sequence (whole entry, looked up): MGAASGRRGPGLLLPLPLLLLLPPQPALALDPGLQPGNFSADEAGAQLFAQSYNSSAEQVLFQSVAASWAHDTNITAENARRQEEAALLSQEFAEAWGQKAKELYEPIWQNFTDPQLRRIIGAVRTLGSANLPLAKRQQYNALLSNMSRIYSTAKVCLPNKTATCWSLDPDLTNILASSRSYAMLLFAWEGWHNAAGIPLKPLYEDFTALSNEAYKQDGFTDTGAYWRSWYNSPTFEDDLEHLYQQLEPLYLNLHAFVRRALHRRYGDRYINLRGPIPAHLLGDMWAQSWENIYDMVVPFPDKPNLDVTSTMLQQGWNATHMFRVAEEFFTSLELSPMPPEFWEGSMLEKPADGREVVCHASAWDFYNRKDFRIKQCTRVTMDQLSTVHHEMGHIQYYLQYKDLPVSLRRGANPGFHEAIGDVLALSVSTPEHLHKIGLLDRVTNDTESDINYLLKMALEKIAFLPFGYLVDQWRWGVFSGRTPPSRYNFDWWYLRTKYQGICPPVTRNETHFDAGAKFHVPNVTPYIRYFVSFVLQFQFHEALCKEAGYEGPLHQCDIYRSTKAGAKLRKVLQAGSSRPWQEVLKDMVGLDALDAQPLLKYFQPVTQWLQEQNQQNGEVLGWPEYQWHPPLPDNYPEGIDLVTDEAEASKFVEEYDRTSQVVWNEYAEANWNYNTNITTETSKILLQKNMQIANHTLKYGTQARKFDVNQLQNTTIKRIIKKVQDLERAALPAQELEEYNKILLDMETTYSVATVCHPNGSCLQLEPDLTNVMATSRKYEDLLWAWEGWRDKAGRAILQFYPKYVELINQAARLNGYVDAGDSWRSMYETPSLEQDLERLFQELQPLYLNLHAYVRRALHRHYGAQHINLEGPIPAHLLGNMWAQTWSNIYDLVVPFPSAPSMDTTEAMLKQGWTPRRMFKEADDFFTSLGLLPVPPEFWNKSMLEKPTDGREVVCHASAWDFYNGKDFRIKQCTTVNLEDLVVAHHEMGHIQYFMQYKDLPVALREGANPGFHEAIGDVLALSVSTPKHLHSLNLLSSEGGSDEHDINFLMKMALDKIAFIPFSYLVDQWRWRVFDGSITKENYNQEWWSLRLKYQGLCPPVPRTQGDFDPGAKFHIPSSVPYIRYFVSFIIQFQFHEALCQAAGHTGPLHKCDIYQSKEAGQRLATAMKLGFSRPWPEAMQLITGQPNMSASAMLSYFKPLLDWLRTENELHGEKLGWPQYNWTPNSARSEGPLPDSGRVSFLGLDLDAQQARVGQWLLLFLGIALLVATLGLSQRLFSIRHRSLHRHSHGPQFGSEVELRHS
# UniProt P18825, sequence (whole entry, looked up): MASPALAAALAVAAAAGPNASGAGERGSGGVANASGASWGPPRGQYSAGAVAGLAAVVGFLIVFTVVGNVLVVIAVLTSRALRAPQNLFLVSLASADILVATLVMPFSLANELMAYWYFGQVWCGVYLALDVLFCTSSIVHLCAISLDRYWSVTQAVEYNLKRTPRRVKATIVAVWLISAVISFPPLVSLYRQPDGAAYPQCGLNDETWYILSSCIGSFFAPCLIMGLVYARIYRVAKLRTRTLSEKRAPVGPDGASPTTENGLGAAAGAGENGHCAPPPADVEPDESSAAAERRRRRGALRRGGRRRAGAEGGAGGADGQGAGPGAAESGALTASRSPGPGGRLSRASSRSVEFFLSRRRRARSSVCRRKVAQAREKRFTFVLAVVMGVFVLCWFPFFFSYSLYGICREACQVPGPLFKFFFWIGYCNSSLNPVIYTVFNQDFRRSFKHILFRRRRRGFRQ
# UniProt Q70CQ3, sequence (whole entry, looked up): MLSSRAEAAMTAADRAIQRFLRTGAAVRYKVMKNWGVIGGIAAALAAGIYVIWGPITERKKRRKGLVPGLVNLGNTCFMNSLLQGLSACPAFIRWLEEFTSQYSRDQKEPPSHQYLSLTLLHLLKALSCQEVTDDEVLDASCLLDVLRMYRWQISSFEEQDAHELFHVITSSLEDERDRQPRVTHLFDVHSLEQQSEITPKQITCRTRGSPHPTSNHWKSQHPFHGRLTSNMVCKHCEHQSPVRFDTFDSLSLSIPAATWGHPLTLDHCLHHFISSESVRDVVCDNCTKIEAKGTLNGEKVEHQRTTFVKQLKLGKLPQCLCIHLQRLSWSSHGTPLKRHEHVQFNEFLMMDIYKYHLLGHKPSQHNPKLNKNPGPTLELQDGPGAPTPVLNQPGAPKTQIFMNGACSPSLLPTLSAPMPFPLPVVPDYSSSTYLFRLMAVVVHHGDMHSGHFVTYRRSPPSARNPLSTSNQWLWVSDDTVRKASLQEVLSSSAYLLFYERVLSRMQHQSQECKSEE
# UniProt P54292, sequence (whole entry, looked up): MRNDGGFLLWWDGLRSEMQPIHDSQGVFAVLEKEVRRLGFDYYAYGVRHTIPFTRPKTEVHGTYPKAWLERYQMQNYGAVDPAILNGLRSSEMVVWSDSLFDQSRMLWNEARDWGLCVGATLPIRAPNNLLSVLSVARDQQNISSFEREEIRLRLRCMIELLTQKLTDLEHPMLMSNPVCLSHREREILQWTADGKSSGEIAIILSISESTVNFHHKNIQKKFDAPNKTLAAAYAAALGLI
SMILES,target,assay,test system,conditions,scale,inhibition
CC(C)[C@H]1NC(=O)[C@H](CO)NC(=O)c2cc3cc(c2)C(=O)NC[C@H](NC(=O)[C@H](Cc2c[nH]cn2)NC(=O)[C@H](Cc2ccc(C(F)(F)P(=O)(O)O)cc2)NC(=O)[C@@H]2CCCN2C1=O)C(=O)N[C@@H](Cc1ccccc1)C(=O)N[C@@H](Cc1ccc2ccccc2c1)C(=O)N[C@@H](CCCNC(=N)N)C(=O)N[C@@H](CCCNC(=N)N)C(=O)N[C@@H](CCCNC(=N)N)C(=O)N[C@@H](CCCNC(=N)N)C(=O)N[C@H](C(=O)N[C@@H](CCCCN)C(N)=O)CNC3=O,"Tyrosine-protein phosphatase non-receptor type 6 (PTPN6, Homo sapiens, UniProt P29350)","enzyme activity, inhibitor, absorbance",,1 µM,,≤ 10%
CC[C@H](C)[C@H](NC(=O)[C@H](Cc1ccc(O)cc1)NC(=O)[C@@H](NC(=O)[C@H](CCCNC(=N)N)NC(=O)[C@@H](N)CC(=O)O)C(C)C)C(=O)N[C@@H](Cc1c[nH]cn1)C(=O)N1CCC[C@H]1C(=O)N[C@@H](Cc1ccccc1)C(=O)O,"Angiotensin-converting enzyme (ACE, Homo sapiens, UniProt P12821)",angiotensin I hydrolysis,human serum,"5 µM, with: angiotensin I 2.5 µM",,38%
O=C(Cc1c(F)c(F)c(F)c(F)c1F)N[C@H]1CCOC1=O,"HTH-type quorum-sensing regulator RhlR (rhlR, Pseudomonas aeruginosa, UniProt P54292)","reporter gene, antagonist",Escherichia coli reporter strain,"100 µM, with: 10 µM BHL",relative to: untreated,66%
C[C@@]12CC[C@@H]3c4cc(Cl)c(O)c(Cl)c4CC[C@H]3[C@@H]1CCC2=O,AKR1C3,"enzyme activity, inhibitor, absorbance",,"100 µM, pH 9",,89.8%
CC(C)(C)c1ccc(Nc2c3c(nc4ccccc24)CCCC3)cc1,BCHE,"enzyme activity, inhibitor",,50 µM,,20%
CC(C)C[C@H](N)C(=O)CCl,"cathepsin B (Capra hircus, UniProt A0A452G2V1)",,goat liver,"10 µM, pH 6.0, with: BANA",,~9.5%
C[C@]12CC[C@@H]3c4ccc(O)c(Cl)c4CC[C@H]3[C@@H]1CCC2=O,AKR1C3,"enzyme activity, inhibitor, absorbance",,"10 µM, pH 9",,50%
COC(=O)C1=CO[C@@H](OC(C)=O)[C@@H]2C(Cn3cc(C(O)(c4ccccc4)c4ccccc4)nn3)=CC[C@H]12,BCHE,inhibitor,horse serum BuChE,10000 µM,,27.14 ± 0.09%
CC[C@H](C)[C@H](NC(=O)[C@H](CCCNC(=N)N)NC(=O)[C@@H](NC(=O)[C@H](CO)NC(=O)[C@H](CS)NC(=O)[C@H](CCCNC(=N)N)NC(=O)[C@H](CCCNC(=N)N)NC(=O)[C@H](CCCNC(=N)N)NC(=O)[C@H](CCC(N)=O)NC(=O)[C@H](CCCNC(=N)N)NC(=O)[C@H](CCCNC(=N)N)NC(=O)[C@H](CCCCN)NC(=O)[C@H](CCCCN)NC(=O)[C@@H](N)CCCNC(=N)N)[C@@H](C)O)C(=O)N[C@@H](CCCNC(=N)N)C(=O)N[C@@H](CCCNC(=N)N)C(=O)N[C@@H](CCC(N)=O)C(=O)N[C@@H](CC(C)C)C(N)=O,"NADPH oxidase 2 (CYBB, Homo sapiens, UniProt P04839)",enzyme activity,membrane preparation,100 µM,,inhibited
c1ccc2ncc(Nc3c4c(nc5ccccc35)CCCC4)cc2c1,BCHE,"enzyme activity, inhibitor",,50 µM,,-169%
COC(=O)C1=CO[C@@H](O)[C@@H]2C(Cn3cc(CCCO[Si](c4ccccc4)(c4ccccc4)C(C)(C)C)nn3)=CC[C@H]12,BCHE,inhibitor,horse serum BuChE,10000 µM,,35.42 ± 0.2%
CC(C)[C@H](NC(=O)[C@H](CCCNC(=N)N)NC(=O)[C@@H](N)Cc1ccccc1)C(=O)N[C@@H](Cc1c[nH]c2ccccc12)C(=O)O,"Angiotensin-converting enzyme (ACE, Oryctolagus cuniculus, UniProt P12822)",inhibitor,rabbit,"concentration not given, 3 h, 37 °C, after incubation with ACE",,92.75 ± 0.15%
CSCCNC(=O)CCC(C)C1CCC2C3C(O)CC4CC(O)CCC4(C)C3CCC12C (centres unmarked),"Bile acid receptor (NR1H4, Homo sapiens, UniProt Q96RI1)","receptor activation, antagonist",,"concentration not given, with: CDCA 25 µM",,inhibited
COC(=O)C1=CO[C@@H](OC(C)=O)[C@@H]2C(Cn3cc(CCN4C(=O)c5ccccc5C4=O)nn3)=CC[C@H]12,BCHE,inhibitor,horse serum BuChE,10000 µM,,99.85 ± 0.13%
O=C1[O][Pt]2([OH])([OH])([NH]C3CCCCC3[NH]2)[O]C1=O (centres unmarked),thioredoxin reductase,,,1 µM,,13.5%
COc1ccnc(Nc2c3c(nc4cc(C)ccc24)CCCC3)c1,BCHE,"enzyme activity, inhibitor",,100 µM,,-91.9%
Cc1ccc2c(n1)c(-c1cccc(S(C)(=O)=O)c1)c(C)n2C/C(F)=C/CN,"Lysyl oxidase homolog 2 (LOXL2, Homo sapiens, UniProt Q9Y4K0)","inhibitor, activity-based probe","healthy human subjects, plasma","oral, 100 mg once daily, 14 days, multiple ascending dose",,≥ 85%
O=C(CN1CCN(c2cc3c(cc2F)c(=O)c(C(=O)O)cn3C2CC2)CC1)Nc1ccc(Cl)cc1,"DNA topoisomerase 2-alpha (TOP2A, Homo sapiens, UniProt P11388)","enzyme activity, inhibitor",,100 µM,,96.1%
Clc1ccc2nc3c(c(Nc4ccc5ccccc5n4)c2c1)CCCC3,BCHE,"enzyme activity, inhibitor",,50 µM,,-137%
CC[C@H](CO)Nc1nc(NCc2ccc(C)s2)n2ncc(C(C)C)c2n1,CDK5,enzyme activity,,2 µM,,~40%
Cc1cccc(Nc2c3c(nc4ccccc24)CCC(C)C3)n1 (centres unmarked),BCHE,"enzyme activity, inhibitor",,100 µM,,-38.8%
Cc1ccc(N2CC3CCC(C2)N3C)cc1C(=O)N[C@H](C)c1cc(-c2cnn(C)c2)nc2ccccc12,"Ubiquitin carboxyl-terminal hydrolase 30 (USP30, Homo sapiens, UniProt Q70CQ3)",enzyme activity,,concentration not given,,no inhibition
OC[C@@H]1NC[C@H](O)[C@@H]1O,"Mannosyl-oligosaccharide alpha-1,2-mannosidase 1B (mns1B, Aspergillus phoenicis, UniProt Q12563)","enzyme activity, inhibitor",,1 mM,,50%
COc1ccnc(Nc2c3c(nc4ccccc24)CCCC3)c1,BCHE,"enzyme activity, inhibitor",,50 µM,,78%
C[C@@](O)(C(F)F)[C@H](NC(=O)c1ccc(C#CC#CC2CC2)cc1)C(=O)NO,"Interstitial collagenase (MMP1, Homo sapiens, UniProt P03956)","enzyme activity, inhibitor",,30 µM,,≤ 30%
NC(=O)CCCCC=C1C(=O)OC1CCc1ccccc1 (centres unmarked),"Phosphatidylserine lipase ABHD16A (Homo sapiens, UniProt O95870)","enzyme activity in cells, inhibitor",COLO 205,1 µM,,< 30%
CC1N=C(c2ccccc2F)c2cc(Nc3ccccc3C(F)(F)F)ccc2NC1=O (centres unmarked),"Alpha-2C adrenergic receptor (ADRA2C, Homo sapiens, UniProt P18825)","ligand displacement, radioligand",,10 µM,,16%
O=C(c1ccc(Nc2c3c(nc4ccccc24)CCCC3)cc1)C1CC1,BCHE,"enzyme activity, inhibitor",,50 µM,,-115%
C[C@]12CCC[C@H]1[C@@H]1CCc3c(cc(Br)c(O)c3Br)[C@H]1CC2,AKR1C3,"enzyme activity, inhibitor, absorbance",,"100 µM, pH 9",,26.7%
CC(=O)NC(Cc1ccc(Br)c(Cl)c1)C(=O)N[C@@H](C)C(=O)N1CCC[C@H]1C(=O)N1CCC[C@H]1C(=O)N[C@@H](CCC(=O)O)C(=O)N[C@@H](Cc1c[nH]cn1)C(=O)N[C@@H](CO)C(=O)N[C@H](C(=O)N[C@@H](C)C(N)=O)[C@@H](C)OP(=O)(O)O (some centres unmarked),"Insulin-like growth factor 1 receptor (IGF1R, Homo sapiens, UniProt P08069)","cell-free assay, inhibitor",,10 µM,,0.06%
C=CCn1nnc2c(NCc3ccc(C)s3)nc(N[C@H](CC)CO)nc21,CDK5,enzyme activity,,2 µM,,10 to 20%
Cc1ccnc(Nc2c3c(nc4ccccc24)CCC(C)C3)c1 (centres unmarked),BCHE,"enzyme activity, inhibitor",,100 µM,,-117%

# Repeated from above:
SMILES,target,assay,test system,conditions,scale,inhibition
CC1N=C(c2ccccc2F)c2cc(Nc3ccccc3C(F)(F)F)ccc2NC1=O (centres unmarked),"Alpha-2C adrenergic receptor (ADRA2C, Homo sapiens, UniProt P18825)","ligand displacement, radioligand",,10 µM,,16%
O=C(c1ccc(Nc2c3c(nc4ccccc24)CCCC3)cc1)C1CC1,BCHE,"enzyme activity, inhibitor",,50 µM,,-115%
